Published values gathered from unrelated publications.
± gives the spread as reported.
U2AF2: U2AF2 148-342 (Homo sapiens, UniProt P26368)
Sequence of UniProt P26368 (whole entry, looked up): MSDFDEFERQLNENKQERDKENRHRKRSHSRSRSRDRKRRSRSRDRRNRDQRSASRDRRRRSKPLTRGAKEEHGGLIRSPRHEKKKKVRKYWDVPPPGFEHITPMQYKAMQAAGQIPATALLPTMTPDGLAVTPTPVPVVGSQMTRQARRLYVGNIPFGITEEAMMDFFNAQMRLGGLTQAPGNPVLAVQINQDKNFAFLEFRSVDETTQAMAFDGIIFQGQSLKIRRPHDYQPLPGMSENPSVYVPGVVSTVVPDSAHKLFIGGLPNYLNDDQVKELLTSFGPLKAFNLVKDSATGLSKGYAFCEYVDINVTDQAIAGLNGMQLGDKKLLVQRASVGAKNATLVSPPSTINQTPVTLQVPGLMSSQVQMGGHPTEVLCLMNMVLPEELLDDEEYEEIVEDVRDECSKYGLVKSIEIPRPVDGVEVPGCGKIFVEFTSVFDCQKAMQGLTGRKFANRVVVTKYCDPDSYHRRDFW
B1: human emerin; sequence looked up; chain MDNYADLSDTELTTLLRRYNIPHGPVVGSTRRLYEKKIFEYETQRRRLSPPSSSAASSYSFSDLNSTRGDADMYDLPKKEDALLYQSKGYNDDYYEESYFTTRTYGEPESAGPSRAVRQSVTSFPDADAFHHQVHDDDLLSSSEEECKDRERPMYGRDSAYQSITHYRPVSASRSSLDLSYYPTSSSTSFMSSSSSSSSWLTRRAIRPENRAPGAGLGQDRQVPLWGQLLLFLVFVIVLFFIYHFMQAEEGNPF
B2: serpin B4 (human); sequence looked up; chain MNSLSEANTKFMFDLFQQFRKSKENNIFYSPISITSALGMVLLGAKDNTAQQISKVLHFDQVTENTTEKAATYHVDRSGNVHHQFQKLLTEFNKSTDAYELKIANKLFGEKTYQFLQEYLDAIKKFYQTSVESTDFANAPEESRKKINSWVESQTNEKIKNLFPDGTIGNDTTLVLVNAIYFKGQWENKFKKENTKEEKFWPNKNTYKSVQMMRQYNSFNFALLEDVQAKVLEIPYKGKDLSMIVLLPNEIDGLQKLEEKLTAEKLMEWTSLQNMRETCVDLHLPRFKMEESYDLKDTLRTMGMVNIFNGDADLSGMTWSHGLSVSKVLHKAFVEVTEEGVEAAAATAVVVVELSSPSTNEEFCCNHPFLFFIRQNKTNSILFYGRFSSP
B3: CENPF 1-385 (Homo sapiens, UniProt P49454); sequence looked up; chain MSWALEEWKEGLPTRALQKIQELEGQLDKLKKEKQQRQFQLDSLEAALQKQKQKVENEKTEGTNLKRENQRLMEICESLEKTKQKISHELQVKESQVNFQEGQLNSGKKQIEKLEQELKRCKSELERSQQAAQSADVSLNPCNTPQKIFTTPLTPSQYYSGSKYEDLKEKYNKEVEERKRLEAEVKALQAKKASQTLPQATMNHRDIARHQASSSVFSWQQEKTPSHLSSNSQRTPIRRDFSASYFSGEQEVTPSRSTLQIGKRDANSSFFDNSSSPHLLDQLKAQNQELRNKINELELRLQGHEKEMKGQVNKFQELQLQLEKAKVELIEKEKVLNKCRDELVRTTAQYDQASTKYTALEQKLKKLTEDLSCQRQNAESARCSL
B4: DLL4 27-400 G28S/F107L/I143F/H194Y/L206P/N257P/T271L/F280Y/S301R/Q305P (Homo sapiens, UniProt Q9NR61); sequence looked up; chain SSVFQLQLQEFINERGVLASGRPCEPGCRTFFRVCLKHFQAVVSPGPCTFGTVSTPVLGTNSFAVRDDSSGGGRNPLQLPLNFTWPGTFSLIIEAWHAPGDDLRPEALPPDALISKFAIQGSLAVGQNWLLDEQTSTLTRLRYSYRVICSDNYYGDNCSRLCKKRNDYFGHYVCQPDGNPSCLPGWTGEYCQQPICLSGCHEQNGYCSKPAECLCRPGWQGRLCNECIPHPGCRHGTCSTPWQCLCDEGWGGLYCDQDLNYCTHHSPCKNGATCRNSGPRSYTCTCRPGYTGVDCELELSECDSNPCRNGGSCKDQEDGYHCLCPPGYYGLHCEHSTLSCADSPCFNGGSCRERNQGANYACECPPNFTGSNCE
B5: NOTCH1 1758-2126 (Homo sapiens, UniProt P46531); sequence looked up; chain RKRRRQHGQLWFPEGFKVSEASKKKRREPLGEDSVGLKPLKNASDGALMDDNQNEWGDEDLETKKFRFEEPVVLPDLDDQTDHRQWTQQHLDAADLRMSAMAPTPPQGEVDADCMDVNVRGPDGFTPLMIASCSGGGLETGNSEEEEDAPAVISDFIYQGASLHNQTDRTGETALHLAARYSRSDAAKRLLEASADANIQDNMGRTPLHAAVSADAQGVFQILIRNRATDLDARMHDGTTPLILAARLAVEGMLEDLINSHADVNAVDDLGKSALHWAAAVNNVDAAVVLLKNGANKDMQNNREETPLFLAAREGSYETAKVLLDHFANRDITDHMDRLPRDIAQERMHHDIVRLLDEYNLVRSPQLHG
B6: TIMP2 27-153 (Homo sapiens, UniProt P16035); sequence looked up; chain CSCSPVHPQQAFCNADVVIRAKAVSEKEVDSGNDIYGNPIKRIQYEIKQIKMFKGPEKDIEFIYTAPSSAVCGVSLDVGGKKEYLIAGKAEGDGKMHITLCDFIVPWDTLSTTQKKSLNHRYQMGCE
Sequence of UniProt P03956 (whole entry, looked up): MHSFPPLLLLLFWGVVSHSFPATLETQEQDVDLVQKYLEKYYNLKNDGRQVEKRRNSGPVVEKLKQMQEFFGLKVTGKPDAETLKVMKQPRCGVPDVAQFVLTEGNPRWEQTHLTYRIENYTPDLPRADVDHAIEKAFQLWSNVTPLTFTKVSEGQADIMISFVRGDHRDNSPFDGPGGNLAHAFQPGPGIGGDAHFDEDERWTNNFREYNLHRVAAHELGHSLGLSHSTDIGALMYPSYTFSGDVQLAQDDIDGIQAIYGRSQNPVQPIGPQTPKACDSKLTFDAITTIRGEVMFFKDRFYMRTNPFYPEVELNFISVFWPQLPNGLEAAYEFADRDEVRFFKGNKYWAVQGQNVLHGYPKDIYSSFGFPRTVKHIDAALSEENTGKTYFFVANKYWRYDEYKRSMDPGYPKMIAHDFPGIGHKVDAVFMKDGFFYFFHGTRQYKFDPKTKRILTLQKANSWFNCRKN
Sequence of UniProt Q06330 (whole entry, unmodified, looked up): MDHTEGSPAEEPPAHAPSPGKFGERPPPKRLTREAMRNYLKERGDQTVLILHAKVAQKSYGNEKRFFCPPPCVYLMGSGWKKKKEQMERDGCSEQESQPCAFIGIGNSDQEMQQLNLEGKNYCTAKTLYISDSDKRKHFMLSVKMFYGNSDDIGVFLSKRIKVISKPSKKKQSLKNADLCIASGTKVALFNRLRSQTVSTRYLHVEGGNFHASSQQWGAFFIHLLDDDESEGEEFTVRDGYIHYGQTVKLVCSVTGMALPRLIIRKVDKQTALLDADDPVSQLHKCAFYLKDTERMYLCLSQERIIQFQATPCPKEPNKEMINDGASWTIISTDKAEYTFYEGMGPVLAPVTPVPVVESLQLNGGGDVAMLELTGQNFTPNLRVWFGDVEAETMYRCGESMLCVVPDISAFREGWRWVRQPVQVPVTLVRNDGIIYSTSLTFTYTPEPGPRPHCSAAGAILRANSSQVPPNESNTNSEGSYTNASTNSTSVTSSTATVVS
Sequence of UniProt P40359 (whole entry, looked up): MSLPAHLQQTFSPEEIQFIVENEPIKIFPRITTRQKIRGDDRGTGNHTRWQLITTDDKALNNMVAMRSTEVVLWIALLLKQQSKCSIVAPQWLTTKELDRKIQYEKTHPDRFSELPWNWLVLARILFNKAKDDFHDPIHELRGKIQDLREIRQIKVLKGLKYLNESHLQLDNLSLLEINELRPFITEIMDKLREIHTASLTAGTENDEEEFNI
Sequence of UniProt P12314 (whole entry, looked up): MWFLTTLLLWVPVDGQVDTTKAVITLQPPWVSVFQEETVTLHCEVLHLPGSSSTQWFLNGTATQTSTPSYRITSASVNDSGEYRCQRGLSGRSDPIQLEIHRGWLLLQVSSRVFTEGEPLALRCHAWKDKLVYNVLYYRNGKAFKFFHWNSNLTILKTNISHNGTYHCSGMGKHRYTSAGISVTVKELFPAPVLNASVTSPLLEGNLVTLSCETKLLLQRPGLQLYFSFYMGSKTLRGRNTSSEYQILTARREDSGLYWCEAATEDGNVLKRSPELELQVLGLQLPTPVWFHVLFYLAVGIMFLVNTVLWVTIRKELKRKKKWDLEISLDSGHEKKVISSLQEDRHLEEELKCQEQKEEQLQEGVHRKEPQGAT
Sequence of UniProt P08631 (whole entry, unmodified, looked up): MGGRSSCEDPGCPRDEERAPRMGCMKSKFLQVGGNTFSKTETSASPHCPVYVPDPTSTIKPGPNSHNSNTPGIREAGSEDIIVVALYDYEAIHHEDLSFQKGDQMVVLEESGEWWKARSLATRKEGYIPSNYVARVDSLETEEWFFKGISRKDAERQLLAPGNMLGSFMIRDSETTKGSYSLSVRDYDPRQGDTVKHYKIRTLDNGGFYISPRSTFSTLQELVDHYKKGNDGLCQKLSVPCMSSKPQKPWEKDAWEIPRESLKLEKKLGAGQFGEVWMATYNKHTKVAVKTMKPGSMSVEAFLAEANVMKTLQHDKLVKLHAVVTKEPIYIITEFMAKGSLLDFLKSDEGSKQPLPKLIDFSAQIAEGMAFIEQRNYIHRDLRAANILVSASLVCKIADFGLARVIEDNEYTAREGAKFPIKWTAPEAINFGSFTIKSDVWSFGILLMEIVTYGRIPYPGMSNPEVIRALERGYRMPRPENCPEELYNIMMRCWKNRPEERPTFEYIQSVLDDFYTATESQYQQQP
Sequence of UniProt P29496 (whole entry, looked up): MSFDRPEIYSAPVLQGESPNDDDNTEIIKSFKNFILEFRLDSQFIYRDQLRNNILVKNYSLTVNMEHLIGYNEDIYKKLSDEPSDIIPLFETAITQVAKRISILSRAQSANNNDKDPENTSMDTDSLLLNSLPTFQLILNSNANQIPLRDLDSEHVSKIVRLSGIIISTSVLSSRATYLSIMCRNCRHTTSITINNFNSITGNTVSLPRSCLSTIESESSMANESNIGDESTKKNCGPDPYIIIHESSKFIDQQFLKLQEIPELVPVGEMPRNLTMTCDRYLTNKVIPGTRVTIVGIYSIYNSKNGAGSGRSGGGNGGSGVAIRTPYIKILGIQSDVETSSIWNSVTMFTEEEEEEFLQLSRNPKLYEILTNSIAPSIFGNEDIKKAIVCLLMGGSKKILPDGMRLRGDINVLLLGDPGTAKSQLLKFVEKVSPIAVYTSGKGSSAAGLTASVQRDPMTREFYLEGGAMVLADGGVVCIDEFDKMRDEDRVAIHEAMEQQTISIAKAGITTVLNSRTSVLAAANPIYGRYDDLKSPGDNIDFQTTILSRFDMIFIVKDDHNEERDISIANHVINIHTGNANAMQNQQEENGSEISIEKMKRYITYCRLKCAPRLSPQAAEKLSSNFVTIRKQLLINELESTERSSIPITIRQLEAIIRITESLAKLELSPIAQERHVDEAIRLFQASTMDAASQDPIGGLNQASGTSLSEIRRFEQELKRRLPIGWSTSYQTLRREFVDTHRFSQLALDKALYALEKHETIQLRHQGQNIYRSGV
Sequence of UniProt Q96NY8 (whole entry, looked up): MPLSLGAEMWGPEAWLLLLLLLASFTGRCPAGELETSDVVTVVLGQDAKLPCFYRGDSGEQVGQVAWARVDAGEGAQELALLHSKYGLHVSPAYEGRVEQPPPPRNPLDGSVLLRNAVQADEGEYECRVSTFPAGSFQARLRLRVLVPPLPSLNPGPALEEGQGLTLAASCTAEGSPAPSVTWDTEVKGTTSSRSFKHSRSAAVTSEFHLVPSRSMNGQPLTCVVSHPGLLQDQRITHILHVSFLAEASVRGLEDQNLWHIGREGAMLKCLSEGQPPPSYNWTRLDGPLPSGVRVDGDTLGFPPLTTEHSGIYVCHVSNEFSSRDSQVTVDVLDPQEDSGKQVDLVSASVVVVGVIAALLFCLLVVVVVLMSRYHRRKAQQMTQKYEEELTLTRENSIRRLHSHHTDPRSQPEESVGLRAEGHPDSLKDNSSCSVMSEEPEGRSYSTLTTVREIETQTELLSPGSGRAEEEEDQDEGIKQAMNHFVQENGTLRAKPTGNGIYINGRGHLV
Sequence of UniProt Q8N5K1 (whole entry, looked up): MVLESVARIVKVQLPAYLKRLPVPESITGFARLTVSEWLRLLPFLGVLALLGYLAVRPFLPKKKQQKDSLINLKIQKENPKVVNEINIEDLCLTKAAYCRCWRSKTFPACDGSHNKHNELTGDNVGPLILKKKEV

For `FGG (Homo sapiens, UniProt P02679)`, cross-linked residues read “K299 to K394” (ZGPAT (Homo sapiens, UniProt Q8N5A5); cross-linking MS; added: DSSO).
The co-immunoprecipitation of `Itpr1 (Rattus norvegicus, UniProt P29994)` is reported as 14.6% (CISD2 (Homo sapiens, UniProt Q8N5K1); co-IP; HEK293; densitometry; relative to: total, higher = more co-precipitated).
Under “log2 fold change”, `B1 (human emerin)` is recorded as 2.41 (CYB5R4 knockout human cells; PP4 interaction, 3xFLAG-PP4C IP-MS; concentration not given; relative to: CYB5R4 KO over parental).
`MCM5 (Saccharomyces cerevisiae, UniProt P29496)`: interaction screen “cross-linked” (PSF2 (Saccharomyces cerevisiae, UniProt P40359); cross-linking MS; hits only).
`ARTKQTARKSTG (histone H3 peptide 1-12; K4me1)` — result for “molecule per partner”: 0.72 (Ehd3 417-547 H441A (Oryza sativa, UniProt Q6ZJM9); ITC; peptide).
For `B2 (serpin B4)`, “log2 fold change” read 0.15 (CYB5R4 knockout human cells; PP4 interaction, 3xFLAG-PP4C IP-MS; concentration not given; relative to: CYB5R4 KO over parental).
Under cross-linked residues, `ALB (Homo sapiens, UniProt P02768)` is recorded as “K36 to K100” (POR (Homo sapiens, UniProt P16435); cross-linking MS; added: DSSO).
`GUUCUGUGU (ssRNA)` has a Kd of 5600 nM (U2AF2; sequencing of bound RNA; RNA; motif only).
`ACPFGCMKNWSWPIWCANK (Bicycle 72 bicyclic peptide; C-terminal amide/TATA scaffold, three cysteines cyclised)` has a Ki of 65.1 nM (NECTIN4 32-349 (Homo sapiens, UniProt Q96NY8); fluorescence polarisation; peptide).
`trastuzumab-MMAE ADC IgG1`: “KD fold increase” 1.4 fold (FCGR1A (Homo sapiens, UniProt P12314); BLI; ADC; relative to: unconjugated Trastuzumab, higher = weaker binding).
`B3 (CENPF 1-385)` has an affinity decrease of 3 fold (tubulin alpha/beta paclitaxel-stabilized microtubules (Bos taurus); co-sedimentation; relative to: Ndc80, higher = weaker affinity).
With `B4` the affinity enhancement was 1030 fold (NOTCH1 237-549 (Homo sapiens, UniProt P46531); SPR; relative to: WT DLL4, higher = tighter binding).
For `KISPPTPKPRPPRPLPVAPGS (PIK3R1 proline-rich region 1 (Homo sapiens))`, the ΔH was -7.41 ± 0.167 kcal/mol (HCK 78-138 (Homo sapiens, UniProt P08631); ITC; peptide).
Under cross-linked residues, `FGB (Homo sapiens, UniProt P02675)` is recorded as “K77 to K1284” (BSN (Homo sapiens, UniProt Q9UPA5); cross-linking MS; added: DSSO).
For `CCUUAGGUC (ssRNA)`, the Kd was 4280 nM (U2AF2; sequencing of bound RNA; RNA; motif only).
`CFB (Homo sapiens, UniProt P00751)`: cross-linked residues “K732 to K160” (FGB (Homo sapiens, UniProt P02675); cross-linking MS; added: DSSO).
The ΔH of `B5 (NOTCH1 1758-2126)` is reported as -19 kcal/mol (RBPJ 25-449 (Homo sapiens, UniProt Q06330); ITC).
`B6 (TIMP2 27-153)` has a Ki of 0.42 ± 0.03 nM (MMP1 100-269 (Homo sapiens, UniProt P03956); enzyme activity, inhibitor, fluorogenic peptide cleavage assay).
`FGA (Homo sapiens, UniProt P02671)` — result for cross-linked residues: “K448 to K808” (EML6 (Homo sapiens, UniProt Q6ZMW3); cross-linking MS; added: DSSO).

Repeated from above:
`trastuzumab-MMAE ADC IgG1`: “KD fold increase” 1.4 fold (FCGR1A (Homo sapiens, UniProt P12314); BLI; ADC; relative to: unconjugated Trastuzumab, higher = weaker binding).
`B3 (CENPF 1-385)` has an affinity decrease of 3 fold (tubulin alpha/beta paclitaxel-stabilized microtubules (Bos taurus); co-sedimentation; relative to: Ndc80, higher = weaker affinity).
